Published values collected from several papers.
Each numbered part is a random draw from the data of one study; scales do not carry over between parts. Substitutions count along the parent as printed.

Block 1
Target: CCNA1, cyclin fold, Cln2 fusion (human)
Technique: yeast growth competition, sequencing
Sample: yeast
Notes: weak parent motif
Relative to: not given
Reading: higher = stronger binding
Parent: viral docking peptide; KKAKRRLFTISDS; partner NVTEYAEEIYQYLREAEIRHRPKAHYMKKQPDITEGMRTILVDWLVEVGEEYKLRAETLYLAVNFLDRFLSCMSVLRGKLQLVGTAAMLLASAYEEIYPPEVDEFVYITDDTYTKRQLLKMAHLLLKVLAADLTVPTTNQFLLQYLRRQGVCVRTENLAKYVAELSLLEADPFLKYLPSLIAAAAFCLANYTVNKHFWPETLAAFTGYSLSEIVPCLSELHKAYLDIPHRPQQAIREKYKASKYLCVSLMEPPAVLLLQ
| Substitution | normalised enrichment score |
| --- | --- |
| KKAKRRLFTASDS [I10A] | 0.0451 |
| KKAKKRLFTISDS [R5K] | 0.262 |
| KKAKARAFTISDS [R5A L7A] | 0.0855 |
| KKAARRLFTISDS [K4A] | 0.407 |
| KKAKRRLFTISAS [D12A] | 0.264 |
| KKAKRRLFAISDS [T9A] | 0.632 |
| KKAKRRLFTISDA [S13A] | 0.557 |

Block 2
Target: HLA class I histocompatibility antigen, B alpha chain, allele B*08:02 (Homo sapiens, UniProt P01889)
Observed: peptide-MHC binding
Molecule type: peptide
Concentration: concentration not given
| Sequence | binding |
| --- | --- |
| SMKTRTAWF | active |
| YARRYFYPL | active |
| FLIRRFFMF | active |

Mixed results
CAMK2A: Calcium/calmodulin-dependent protein kinase type II subunit alpha (CAMK2A, Homo sapiens, UniProt Q9UQM7)
Sequence of UniProt Q9UQM7 (whole entry, looked up): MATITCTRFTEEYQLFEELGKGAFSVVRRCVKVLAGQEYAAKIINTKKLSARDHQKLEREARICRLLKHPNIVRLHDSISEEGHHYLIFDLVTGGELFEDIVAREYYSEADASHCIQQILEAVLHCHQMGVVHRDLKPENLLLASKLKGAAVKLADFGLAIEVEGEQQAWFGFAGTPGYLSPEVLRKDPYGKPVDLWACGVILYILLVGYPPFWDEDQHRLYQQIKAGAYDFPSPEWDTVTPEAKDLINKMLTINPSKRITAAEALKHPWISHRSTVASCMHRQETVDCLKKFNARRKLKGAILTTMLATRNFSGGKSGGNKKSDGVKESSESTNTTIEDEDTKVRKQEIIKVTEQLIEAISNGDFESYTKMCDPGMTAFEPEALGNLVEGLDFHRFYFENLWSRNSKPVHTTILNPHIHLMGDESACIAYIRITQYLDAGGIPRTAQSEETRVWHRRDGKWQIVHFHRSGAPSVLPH
| SMILES | tested on | assay | test system | conditions | measurement | value |
| --- | --- | --- | --- | --- | --- | --- |
| COc1cc(-c2cc(=O)c3c(O)cc(O)cc3o2)cc(OC)c1O | CAMK2A | enzyme activity, inhibitor | – | 10 µM | inhibition | -5% |
| CC(=O)N[C@@H](Cc1c[nH]c2ccccc12)C(=O)N[C@@H](CCC(=O)C=[N+]=[N-])C(=O)OC(C)C | – | – | C57BL/6 CES1-/- mouse, blood | intravenous, 1 mg/kg equivalent | haemoglobin | 7.47 g/dL |
| CN(C)CCc1ccc(O)cc1 | CAMK2A | enzyme activity, inhibitor | – | 10 µM | inhibition | 2% |
| COc1ccc(C(=O)N2CCCC2=O)cc1 | A-375 | – | – | 100 µM, 18 h | viability | 94.2% |

For quick reference, copied from above (mixed results):
| SMILES | tested on | assay | test system | conditions | measurement | value |
| --- | --- | --- | --- | --- | --- | --- |
| COc1ccc(C(=O)N2CCCC2=O)cc1 | A-375 | – | – | 100 µM, 18 h | viability | 94.2% |
